# Measured values pooled from the literature.
# Protocols differ between the studies behind these lines.
# Cell line: HCT-116
SMILES,assay,setting,scale,quantity,value
NCCC(=O)Nc1ccccc1/N=c1\cc(-c2ccc3nc(N)oc3c2)oc2ccccc12,"cell growth or viability, CCK-8",1 µM,,inhibition,78.5%
Cc1[nH]c(=S)nc2c1c(=O)oc1ccc3ccccc3c12,"cell growth or viability, MTT",10 µM,,inhibition,65.7%
COc1cc(CNC(=O)C[C@H](C)CCC=C(C)C)ccc1OCc1cn(-c2ccc(Cl)cc2)nn1,SRB,"10 µM, 48 h",,growth percent,38.2%
N#Cc1ccc(-c2csc(NN=Cc3cccc(F)c3)n2)cc1,colony formation,"10 µM, 24 h",,inhibition,100%
O=C(O)c1cc(/N=N/c2ccc(O)c(C(=O)O)c2)ccc1O,"cell viability, AO/PI counting",48 h,,toxic concentration,> 500 µM
Nc1nc(N)c(N=O)c(OCc2ccc(Cl)cc2)n1,"cell growth or viability, SRB",72 h,,GI50,52 µM
N#Cc1ccc(-c2csc(NN=Cc3c(F)c(F)c(F)c(F)c3F)n2)cc1,"colony formation, clonogenic","5 µM, 24 h",,inhibition,5 to 30%
COc1cc(CNC(=O)CCCC/C=C/C(C)C)ccc1OCc1cn(-c2cccc(Cl)c2)nn1,SRB,"10 µM, 48 h",,growth percent,76.8%
N#Cc1ccc(-c2csc(NN=Cc3sccc3Br)n2)cc1,colony formation,"5 µM, 24 h",,inhibition,5 to 50%
Cc1nc2ccc(Cl)cc2c(=O)n1NC1=NC(=O)CS1,"cell growth or viability, LDH","200 µg/mL, 24 h",,viability,28%
COc1cc(CNC(=O)CCCC/C=C/C(C)C)ccc1OCc1cn(-c2cc(OC)c(OC)c(OC)c2)nn1,SRB,"10 µM, 48 h",,growth percent,87.1%
COc1cc(OC)c(OC)cc1C=NNc1nc(-c2ccc(C#N)cc2)cs1,colony formation,"10 µM, 24 h",,inhibition,100%
COc1cc(CNC(=O)CCCC/C=C/C(C)C)ccc1OCc1cn(-c2ccccc2F)nn1,SRB,"10 µM, 48 h",,growth percent,97.8%
N#Cc1ccc(-c2csc(NN=Cc3cc(F)cc(C(F)(F)F)c3)n2)cc1,"colony formation, clonogenic","5 µM, 24 h",,inhibition,5 to 30%
CS(=O)(=O)N1CCN(Cc2cc3nc(-c4cccc5[nH]ncc45)nc(N4CCOCC4)c3s2)CC1,"cell growth or viability, SRB",72 h,,GI50,1.7 µM
N#Cc1ccc(-c2csc(NN=Cc3c(Cl)cccc3Cl)n2)cc1,colony formation,"10 µM, 24 h",,inhibition,100%
Cc1ccc(-n2c(SCC(=O)NNC(=O)Nc3ccccc3)nc3ccccc3c2=O)cc1,annexin V-FITC/PI flow cytometry,"concentration not given, 24 h",,late apoptotic cells,16.5%
Cc1[nH]c(=O)nc2c1c(=O)oc1ccc3ccccc3c12,"cell growth or viability, MTT",10 µM,,inhibition,69.8%
COc1cc([C@@H]2c3cc4c(cc3[C@@H](O[C@@H]3O[C@@H]5CO[C@@H](C)O[C@H]5[C@H](O)[C@H]3O)[C@H]3COC(=O)[C@H]23)OCO4)cc(OC)c1O,trypan blue,"100 µM, 4 h",baseline: PHF20 over mock,cell death increase,~40%
N#Cc1ccc(-c2csc(NN=Cc3c(F)cc(F)cc3F)n2)cc1,colony formation,"10 µM, 24 h",,inhibition,100%
COc1cc(CNC(=O)CCCC/C=C/C(C)C)ccc1OCc1cn(-c2ccc(F)cc2)nn1,SRB,"10 µM, 48 h",,growth percent,65.6%
CCCCCCCCNC(=S)NCCCC[C@H](NC(=O)OCc1ccccc1)C(=O)Nc1ccccc1,colony formation,3D culture,,GI50,~7 µM
C#Cc1cccc(Nc2ncnc3cc(OCCOC)c(OCCOC)cc23)c1,"cell growth or viability, MTT",10 µM,,inhibition,88.3%
COc1cc(/C=N/n2c(C)nc3ccc(Br)cc3c2=O)ccc1O,"cell growth or viability, LDH","200 µg/mL, 24 h",,viability,12.8%
N#Cc1ccc(-c2csc(NN=Cc3ccccc3F)n2)cc1,"colony formation, clonogenic","5 µM, 24 h",,inhibition,5 to 30%
COc1cc(CNC(=O)CCCC/C=C/C(C)C)ccc1OCc1cn(-c2ccc(C)cc2)nn1,SRB,"10 µM, 48 h",,growth percent,92.4%
CC1=C(C(=O)Nc2cccnc2)C(c2ccc3ccc4cccc5ccc2c3c45)NC(=S)N1 (stereo not drawn),"cell growth or viability, MTT",10 µM,,inhibition,79.3%
Cn1c(=O)n(-c2ccc(C(C)(C)C#N)cc2)c2c3cc(-c4cnc5ccccc5c4)ccc3ncc21,"cell growth or viability, SRB",72 h,,GI50,0.016 µM
CC1=C(C(=O)Nc2ccccn2)C(c2ccc3ccc4cccc5ccc2c3c45)NC(=S)N1 (stereo not drawn),"cell growth or viability, MTT",10 µM,,inhibition,86.3%
C#C[C@@]1(O)[C@@H](CO)O[C@@H](n2cc(I)c3c(N)ncnc32)[C@@H]1O,"cell growth or viability, SRB",48 h,,GI50,0.045 µM

# Repeated from above:
SMILES,assay,setting,scale,quantity,value
N#Cc1ccc(-c2csc(NN=Cc3c(F)c(F)c(F)c(F)c3F)n2)cc1,"colony formation, clonogenic","5 µM, 24 h",,inhibition,5 to 30%
COc1cc(CNC(=O)CCCC/C=C/C(C)C)ccc1OCc1cn(-c2cccc(Cl)c2)nn1,SRB,"10 µM, 48 h",,growth percent,76.8%
N#Cc1ccc(-c2csc(NN=Cc3sccc3Br)n2)cc1,colony formation,"5 µM, 24 h",,inhibition,5 to 50%
Cc1nc2ccc(Cl)cc2c(=O)n1NC1=NC(=O)CS1,"cell growth or viability, LDH","200 µg/mL, 24 h",,viability,28%
